# Measurements from different studies.
# Each numbered part is a random draw from the data of one study; scales do not carry over between parts. Substitutions count along the parent as printed.

# Series 1
# Target: CCNB1, cyclin fold, Cln2 fusion (human)
# Method: yeast growth competition, sequencing
# Sample: yeast
# Setting: weak parent motif
# Reference: not given
# Reading: higher = stronger binding
# Starting sequence: WEE1 docking peptide (human); HKTFRKLRLFDTP
Substitution,normalised enrichment score
R8V,0.0614
R8W,1.73
K2Y,0.92
K2V,-0.312

# Series 2
# Target: RING finger protein unkempt homolog, zinc fingers 1-6, GST-SBP tag (UNK, Homo sapiens, UniProt Q9C0B0, residues 30-357)
# Method: RNA Bind-n-Seq
# Form: RNA
# Sample: in vitro
# Tested at: not given
# Setting: RNA with constant flanks, human and mouse sites, ends assumed
# Reference: input RNA pool
# Reading: higher = stronger binding
# Shared flanks, not repeated: GGGAGUUCUACAGUCCGACGAUC … CAACAGAGGAUUGAGCAUCA
# Construct (chain): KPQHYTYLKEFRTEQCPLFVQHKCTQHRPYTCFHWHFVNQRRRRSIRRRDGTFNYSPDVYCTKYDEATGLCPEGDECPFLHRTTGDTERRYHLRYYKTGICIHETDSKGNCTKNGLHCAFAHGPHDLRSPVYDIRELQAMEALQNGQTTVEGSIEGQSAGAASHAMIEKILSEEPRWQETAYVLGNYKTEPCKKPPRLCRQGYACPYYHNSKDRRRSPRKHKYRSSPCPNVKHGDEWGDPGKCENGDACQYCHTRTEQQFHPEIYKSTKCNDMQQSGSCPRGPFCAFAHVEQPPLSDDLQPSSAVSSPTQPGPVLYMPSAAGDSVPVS
Sequence,bound/input enrichment [ratio]
UGAAGGUUCCUCUACACUUCUUGGAUUUUGGAACCAUCAAAGAAAUCCAAACUGAGAGGUCUGGACUGGAUGUUCUGUGUAACUUCAAUGCUUUGUGCUAAGUCAAGAGGAACAAAUAUG,0.148
GAAUUUGCUCCAAGCAGAUAGCUCCCUCUGAGGAACCAAAGGAAGCAAGUUUCCACGAUUUCUGAAGAGCUGGUAUAGGAAGUUUCUUUCUUCCUUUUGUGUUACAUGUGCAUUAAACAG,0.182
CAUGUCUGCCAGGAUGAACACCAACUUUACAAUGAAUUUUUCACAAAACCAACAUCAAAAUUAGAUGAGCUUUUGGAGAAACUGUGUGUGUCAUUGUAUGAUGUCUUCAGGCCAUUGAUC,0.108
AUGAAAUCAUCCUGUGAGUUAUUUCCUCCAUAAUAACCCUGCAUUUCCCAUUAAUCUACAUAUCUUCCCACAGCAGCUUUGCUCAGUGAUACCCACAUGGGAAAAAUCCCAGGGGAUGUU,0.377
GUAUCCAUGGGGCUUACAAGGAGCAUGCAAGUUGUCCCCUUGGACAAACAGAUCACAAUCAUAGAUAGUCCGAGCUUCAUCGUAUCUCCACUUAAUUCCUCCUCUGCGCUUGCUCUGCGA,0.39
CAUGUUUUUGAAGAAGACUUCAUUUUGAAUAACCUUGAGAAGAAAAGCCUUGGCAAAGACAGCAUUUUAUCUAAUGCAGGCAGCUCACCUAAUGGAUUUUCUGAGAAGUUCUACCUAAUU,0.0976
UGUAUUAAGAACCGAUGAAAAAAAUUCUCCUGUAACAUUUUUUUAAGAAAACUUUGUUUGUUUAAAGAAAAAGUAUUGUAUAAAUUAUAAUUUUUAUUUAAAUAAACCUAAAAUGCUUUG,0.292

# Series 3
# Target: Protein C-ets-1 (ETS1, Homo sapiens, UniProt P14921, residues 1-441, Y397A, full length assumed)
# UniProt P14921, sequence (whole entry, unmodified, looked up): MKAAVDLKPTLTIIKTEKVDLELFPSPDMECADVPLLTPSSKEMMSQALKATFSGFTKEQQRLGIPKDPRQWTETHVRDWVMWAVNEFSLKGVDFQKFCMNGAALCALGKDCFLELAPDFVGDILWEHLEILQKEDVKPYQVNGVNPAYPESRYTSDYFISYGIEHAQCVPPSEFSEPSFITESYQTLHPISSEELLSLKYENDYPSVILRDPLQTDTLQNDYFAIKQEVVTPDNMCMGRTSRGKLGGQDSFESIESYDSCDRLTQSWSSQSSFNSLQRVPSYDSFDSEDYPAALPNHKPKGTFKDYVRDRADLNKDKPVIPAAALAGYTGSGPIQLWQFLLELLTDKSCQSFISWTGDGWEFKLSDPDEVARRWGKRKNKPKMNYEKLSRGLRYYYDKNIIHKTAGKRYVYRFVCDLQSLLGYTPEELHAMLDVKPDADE
# Method: protein-binding microarray
# Form: double-stranded DNA, one strand shown
# Sample: in vitro
# Tested at: not given
# Setting: k-mer, scored over probes, only values ≥0.25
# Reading: higher = stronger binding
Sequence,E-score
AACATTGT,0.255
CATATAGG,0.282
ATGTCGCG,0.267
ATGTGTTG,0.286
TGACAACA,0.292

# Mixed results
Substance,target,assay,system,setting,scale,endpoint,result
"PhoQ, residues 284 288 289 292 302 303 AANNSF","PhoP, residues 12 14 15 18 19 QYCSL (Escherichia coli, UniProt P23836)","Sort-seq, item: YFP reporter",E. coli,"PhoQ-PhoP variant library, added: 10 µM Mg2+","reference: high Mg2+ state, higher = stronger signaling",fold induction,5.2
